Experimental data gathered from unrelated publications.
Every numbered part comes from another study and shows a few of its results, in no order. Changes are numbered by the printed parent chain.

Sample 1 — target: CCNB1, cyclin fold, Cln2 fusion (human); technique: yeast growth competition, sequencing; sample: yeast; setting: strong parent motif; relative to: not given; reading: higher = stronger binding
Parent: PKN2 docking peptide (human); VSAVQKLDFSDTM
Change	normalised enrichment score
Q5R	3.26
A3H	1.19
T12E	2.83
L7T	-0.638
D8L	1.09
V4N	0.135
M13L	2.2
M13G	2.1
S10N	1.53
M13T	2.07
V1H	2.34
V4K	0.586
L7C	0.445
L7E	0.16
D11Q	0.906

Sample 2 — target: FOSB, bZIP domain (human); technique: DHFR protein complementation; sample: yeast; relative to: wild-type JUN-FOS pair; reading: higher = stronger binding
Setting: single substitutions, most at no-binding floor
Parent: JUN, bZIP domain (human); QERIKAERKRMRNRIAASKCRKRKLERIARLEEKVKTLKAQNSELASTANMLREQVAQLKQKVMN; partner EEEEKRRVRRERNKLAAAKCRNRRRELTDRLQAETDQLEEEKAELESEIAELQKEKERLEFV
Change	binding fitness [natural log]
A46V	-0.222
L45R	-0.64
K36G	-0.218
A40R	-0.056
R30P	-0.24
A29H	-0.152
N42S	-0.767
L38T	-1.03
L31R	-0.777
R30W	-0.0166
E44D	-0.186
K34Y	-0.169
L52V	-0.826
E33S	-0.212
K36D	-0.185
S47F	-0.0775
V56E	-1.19
A57L	-0.313

Sample 3 — technique: RNA Bind-n-Seq; molecule type: RNA; sample: in vitro; tested at: 365 nM; relative to: no-protein control; reading: higher = stronger binding
Target: RNA binding protein fox-1 homolog 2, RRM domain, GST-SBP tag (RBFOX2, Homo sapiens, UniProt O43251-10, residues 100-194)
Setting: natural RNA segment, single round, ends assumed
All sequences stand within: GGGAGUUCUACAGUCCGACGAUC … UGGAAUUCUCGGGUGCCAA
Residues (chain): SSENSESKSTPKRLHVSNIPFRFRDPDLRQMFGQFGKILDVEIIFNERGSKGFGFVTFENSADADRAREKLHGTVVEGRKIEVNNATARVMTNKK
Oligonucleotide	RBNS enrichment (R)
UUUUAAAUGCACUAGGAGCCAACUCUGUCCAUCUGUGAUGGGAUUAGAAAGCCCGGUGUUUUUCUGUGAUAUUAGAUGUCCUCCGAGCACAGCCCACUUGGAUUUGUUUG	0.549
AGGAAGAAGCAAGCAAAACUGAGCUUGCCUUCUUCAAGAGUGACCCUUUCGGGCUCCUUUUUUAGGUGGUGGGAUUGAGUCCCUACUAGCUCGGAAGGCCUUGAGAGGGC	0.336
CAGCGUCUAGCAGUUGGGUCCUCACUUUUACUCCAAUUGUGAAAAUAGCCCACGUACCCUCGCAGUGUCCAGUAGGGAUCCCAGAGGCACAUAACCAAGAAAGGAUUUUG	0.36
UACUUUGUGCUGUGCCAGUGGCUCUGCCCAGGCUCCGCCAUCCCUUUACUGGAGUUCAUUGGUCAGUGCACAGUGCAGCCACAGGACUGACCGUCGUAGGCUUCCAUUUU	0.267
CUGGCCAUCACCCCUCUCCUUGGAAAAUGCCACUGUGCUGUUUGAAAAAAAGCAGCCUUUUAGGGCUAGAGUAUUUUAUAUAAACAGAAGAGCUAAGUUCCUGAAGACUA	0.505
UCAUUAACCCUGCAGCUGCCUGGUCUUGUCUGCUGGAGGGAGGAGAACACAGCCAUCUUGGCCCACUAUCAGGACCAGGCAUGACUCACCAGUGUCAUCUCUGCACUUCA	0.599
GAAGGGAUUUGUUCUAUACGAGGCAACUGCAGUGAGUGCUUUUAAGGCUAUCCCUGUCGCACGUUGGAUCCUGGAUAAGCUAGUCCCUUCGUUUGCGUUGAGAAUUGGCA	2.13
UUGGCCUGCGUGUUUAGAAGCUCCCUGAAAUCAGUUAGCAUCCUAAUACGAGUCAGAUGCUGCAGAAAUGUAAGGCACUUCAAGUCACUUAUGGGUUGGCUUGGUUUGGU	1.07
CCCGGGAGGGACCUUCCCUGCCCUGCUGGGGGUGCUCUUUGGACACUGGAUUAUGAGGAAUGGAUAAAUGGAUGAGCUAGGGCUCUGGGGGUCUGCCUGCACACUCUGGG	7.53
AAUGGUACAGCCACUAAGUAUCACCAGAAAACCAGAAGCCCAGGAUCUUCUGCCUCCGCCAGCCUGUGAGCUGUUUCCAUGUUUUCAAAGCACAGCAGCAGUCGCUUCUG	0.471
CCAGAGGCUCAAAGCCAGAACCUCCUGCAUGUUGGACAAGCACUCUACCAACUGAGCUACAUCCCCAGCCUUCAGUCCCCACCCCCGAGUCCAGAGACAGGUCUCAUGUG	0.443
AAAUGUUUACUUUGUUCCCUGUCUAUAUAUGCCUUUUGAAAAAUAAACUUGUACCUCAAACUCAAACGUUUGGGUGUUUCAGAAUCACAGGCAACUCAAAAGAAGAUCUG	0.297

Sample 4 — technique: universal PBM; molecule type: double-stranded DNA, one strand shown; sample: in vitro; tested at: not given; reading: higher = stronger binding
Target: Sal-like protein 4, full length isoform B (SALL4, Homo sapiens, UniProt Q9UJQ4-2, residues 1-616)
Setting: 8-mer, flanks averaged, mean of replicates
Oligonucleotide	E-score
AGTAGCTC	-0.0644
AGGCTGAC	-0.228
AAACAATA	0.344
ATAATAAC	0.437
CGTCGCCA	-0.102
TCCGGTAA	0.0131
CTTACCGA	-0.0107
ACTATGGC	0.018
CTCTGAGA	-0.178
TAATCTGA	0.173
AGCCGGTC	-0.299
ACAAGGTA	0.128
CAATCCCG	-0.157
GGCAAAAC	0.0232
CTCCCTCC	-0.292
ATTGGTCA	0.128
CAATTCTA	0.0973

Sample 5 — technique: DHFR PCA, deep sequencing; sample: yeast; added: (+)-ABA 58 µM; relative to: wild-type fitted maximum; reading: higher = stronger binding
Target: ABI1, truncated, D143A, DHFR fusion (Arabidopsis thaliana)
Setting: methotrexate growth selection, single substitutions
Parent: PYL1, truncated, DHFR fusion (Arabidopsis thaliana); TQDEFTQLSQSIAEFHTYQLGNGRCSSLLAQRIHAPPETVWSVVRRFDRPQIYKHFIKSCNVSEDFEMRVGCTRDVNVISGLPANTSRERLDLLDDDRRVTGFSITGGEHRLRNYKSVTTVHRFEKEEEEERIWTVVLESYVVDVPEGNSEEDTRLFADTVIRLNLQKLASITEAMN
Change	relative binding score [%]
D97Q	97.2
E67L	74.8
G108F	-18.3
Y18R	74.3
V100M	78.2
E38L	33.9
V143S	37.7
A13K	83.6
S150L	50
Q51W	31.6
I133C	94.5
I12S	17.9
E151D	81.1
R46Y	11.1
F5M	95.7

Mixed results — technique: cross-linking MS
Molecule	partner	system	setting	quantity	value
SEPTIN6 (Homo sapiens, UniProt Q14141)	SEPTIN7 (Homo sapiens, UniProt Q16181)		hits only	interaction screen	cross-linked
EPRS1 (Homo sapiens, UniProt P07814)	ACO2 (Homo sapiens, UniProt Q99798)	cell fractions	added: DSSO	cross-linked residues	K318 to K305
PRPF38A (Homo sapiens, UniProt Q8NAV1)	ZMAT2 (Homo sapiens, UniProt Q96NC0)	cell fractions	added: DSSO	cross-linked residues	K7 to K102
HSP90B1 (Homo sapiens, UniProt P14625)	CKAP4 (Homo sapiens, UniProt Q07065)	cell fractions	added: DSSO	cross-linked residues	K161 to K355

Repeated from above (sample 1):
Change	normalised enrichment score
M13G	2.1
V4K	0.586
D11Q	0.906
S10N	1.53
L7E	0.16
V1H	2.34
Q5R	3.26
D8L	1.09
L7T	-0.638
M13T	2.07
A3H	1.19
V4N	0.135
